Measured values from different studies.
A part holds a random share of what one study measured. Positions count from the first letter of the parent shown.

Block 1 — technique: protein binding microarray; form: double-stranded DNA, one strand shown; sample: in vitro; concentration: not given; reference: not given; reading: higher = stronger binding; measurement: E-score
Target: Histone acetyltransferase KAT6A, both winged helices, GST fusion (KAT6A, Homo sapiens, UniProt Q92794, residues 1-181)
Setting: 8-mer, flanks averaged, mean of 2 arrays, mostly near background
Residues (chain): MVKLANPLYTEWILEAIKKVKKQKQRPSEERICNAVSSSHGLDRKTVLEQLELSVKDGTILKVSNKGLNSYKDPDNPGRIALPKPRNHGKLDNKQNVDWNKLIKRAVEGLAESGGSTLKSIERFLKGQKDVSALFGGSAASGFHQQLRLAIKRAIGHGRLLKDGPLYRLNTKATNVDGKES
TAAGTAAA: -0.1
CTGCCGGC: 0.295
CCAAAGGC: -0.0725
AGAGCGCC: 0.244
CCTTCCTA: -0.187
CCAAGGCA: -0.149
CCAAAGAG: -0.114
AATAGTTC: -0.00505
GTTAATGA: -0.138

Block 2 — technique: DHFR PCA, deep sequencing; sample: yeast; with: (+)-ABA 4.8 µM; reference: wild-type fitted maximum; reading: higher = stronger binding; measurement: relative binding score
Target: ABI1, truncated, D143A, DHFR fusion (Arabidopsis thaliana)
Setting: methotrexate growth selection, single substitutions
Parent: PYL1, truncated, DHFR fusion (Arabidopsis thaliana); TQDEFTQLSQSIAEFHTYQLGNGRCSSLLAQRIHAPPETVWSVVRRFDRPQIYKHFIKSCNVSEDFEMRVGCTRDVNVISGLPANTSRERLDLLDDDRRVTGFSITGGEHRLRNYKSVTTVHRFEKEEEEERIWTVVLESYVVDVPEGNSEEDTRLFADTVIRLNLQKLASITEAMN; partner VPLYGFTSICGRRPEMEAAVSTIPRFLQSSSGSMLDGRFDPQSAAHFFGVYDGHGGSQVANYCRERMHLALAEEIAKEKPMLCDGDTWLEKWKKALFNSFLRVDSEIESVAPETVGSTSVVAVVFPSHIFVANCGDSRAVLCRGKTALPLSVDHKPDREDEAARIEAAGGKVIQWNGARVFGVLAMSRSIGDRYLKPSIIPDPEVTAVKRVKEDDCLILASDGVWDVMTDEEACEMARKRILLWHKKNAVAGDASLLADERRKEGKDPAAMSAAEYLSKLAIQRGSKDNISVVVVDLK
G81W: -2.48%
R163C: 19.1%
E109M: 27.8%
V43K: 2.73%
C60S: 15.6%

Block 3 — target: CCNF, cyclin fold, Cln2 fusion (human); technique: yeast growth competition, sequencing; sample: yeast; setting: strong parent motif; reference: not given; reading: higher = stronger binding; measurement: normalised enrichment score
Parent: SAMHD1 docking peptide (human); ASKSRVQLFKDDP
K10V: 0.529
D12Q: 0.705
Q7V: 0.383
Q7F: 0.391
V6Q: -0.254

Other studies, line by line
PhoQ, residues 284 288 289 292 302 303 NLALSC  fold induction (PhoP, residues 12 14 15 18 19 NQGLL (Escherichia coli, UniProt P23836); Sort-seq, item: YFP reporter; E. coli; PhoQ-PhoP variant library, with: 10 µM Mg2+; reference: high Mg2+ state, higher = stronger signaling): 4.64

For quick reference, copied from above (block 2):
R163C: 19.1%
E109M: 27.8%
V43K: 2.73%
